Experimental data from different studies.
Each line is one published result; not all experiments were run side by side. Numbers after ± are the reported error.

| SMILES | test | system | conditions | endpoint | value |
| --- | --- | --- | --- | --- | --- |
| COc1ccc(C2CC(c3ccc(C)cc3)=Nc3ccccc3S2)cc1 (stereo not drawn) | – | Wistar rat, streptozotocin-induced diabetes, serum | 10 mg/kg, 28 days | serum ALT | 24.4 ± 2.78 IU/L |
| O=c1c(OCc2ccccc2)c(-c2ccc([N+](=O)[O-])cc2)oc2ccccc12 | – | diabetic rat | 5 mg/kg, p-nitrophenyl β-glucoside induced | serum alkaline phosphatase | 218 ± 4.9 IU |
| CCCC[C@H](NC(=O)[C@@H](NC(=O)[C@H](CC(=O)O)NC(=O)[C@H](CCC(N)=O)NC(=O)[C@H](CC(C)C)NC(=O)[C@H](CC(C)C)NC(=O)[C@H](CCCN)NC(=O)[C@H](CCCNC(=N)N)NC(=O)[C@H](C)NC(=O)[C@H](CO)NC(=O)[C@H](CC(C)C)NC(=O)[C@H](CCC(N)=O)NC(=O)[C@H](CC)NC(=O)[C@H](CC(C)C)NC(=O)[C@@H](NC(=O)[C@H](CCCN)NC(=O)[C@H](CCCNC(=N)N)NC(=O)[C@H](Cc1ccc(O)cc1)NC(=O)[C@H](CO)NC(=O)[C@H](CC(N)=O)NC(=O)[C@@H](NC(=O)[C@H](Cc1c(F)c(F)c(F)c(F)c1F)NC(=O)[C@@H](NC(=O)[C@H](C)NC(=O)[C@H](CC(=O)O)NC(=O)[C@@H](C)NC(=O)CCc1ccc(O)cc1)[C@@H](C)CC)[C@@H](C)O)C(C)C)[C@@H](C)CC)C(=O)N[C@@H](CO)C(=O)N[C@@H](CCCNC(=N)N)C(=O)NCCCC(N)=O | GH release, ELISA | male rat, anaesthetised, serum | intravenous, 1 µg/kg, 15 min | serum GH level | 575 ± 20.9 ng/mL |
| COc1ccc(-c2oc3ccccc3c(=O)c2OCc2ccccc2)cc1 | – | diabetic rat | 7.5 mg/kg, 28 days, p-nitrophenyl β-glucoside induced | serum HDL cholesterol | 52.7 ± 2.08 mg/dL |
| Cc1cc(O)c(C=O)c2c1C(=O)Oc1c(CO)c(O)c3c(c1O2)C(O)OC3=O (stereo not drawn) | – | streptozotocin-induced diabetic male rats, serum | 10 mg/kg, 5 weeks | serum insulin | 6.27 ± 0.16 mIU/L |
| CCCC[C@H](NC(=O)[C@@H](NC(=O)[C@H](CC(=O)O)NC(=O)[C@H](CCC(N)=O)NC(=O)[C@H](CC(C)C)NC(=O)[C@H](CC(C)C)NC(=O)[C@H](CCCN)NC(=O)[C@H](CCCNC(=N)N)NC(=O)[C@H](C)NC(=O)[C@H](CO)NC(=O)[C@H](CC(C)C)NC(=O)[C@H](CCC(N)=O)NC(=O)[C@H](CC)NC(=O)[C@H](CC(C)C)NC(=O)[C@@H](NC(=O)[C@H](CCCN)NC(=O)[C@H](CCCNC(=N)N)NC(=O)[C@H](Cc1ccc(O)cc1)NC(=O)[C@H](CO)NC(=O)[C@H](CCC(N)=O)NC(=O)[C@@H](NC(=O)[C@H](Cc1ccccc1)NC(=O)[C@@H](NC(=O)[C@H](C)NC(=O)[C@H](CC(=O)O)NC(=O)[C@@H](C)NC(=O)[C@H](Cc1ccc(O)cc1)NC)[C@@H](C)CC)[C@@H](C)O)C(C)C)[C@@H](C)CC)C(=O)N[C@@H](CC(=O)O)C(=O)N[C@@H](CCCNC(=N)N)C(=O)NCC | GH release, ELISA | male Sprague-Dawley rat, anaesthetised, serum | subcutaneous, 3 µg/kg, 15 min | serum GH level | 256 ± 46 ng/mL |
| O=c1c(OCc2ccccc2)c(-c2ccc(Cl)cc2)oc2ccccc12 | – | diabetic rat | 7.5 mg/kg, p-nitrophenyl β-glucoside induced | serum alanine aminotransferase | 29.3 IU |
| CCCC[C@H](NC(=O)[C@@H](NC(=O)[C@H](CC(=O)O)NC(=O)[C@H](CCC(N)=O)NC(=O)[C@H](CC(C)C)NC(=O)[C@H](CC(C)C)NC(=O)[C@H](CCCN)NC(=O)[C@H](CCCNC(=N)N)NC(=O)[C@H](C)NC(=O)[C@H](CO)NC(=O)[C@H](CC(C)C)NC(=O)[C@H](CCC(N)=O)NC(=O)[C@H](CC)NC(=O)[C@H](CC(C)C)NC(=O)[C@@H](NC(=O)[C@H](CCCN)NC(=O)[C@H](CCCNC(=N)N)NC(=O)[C@H](Cc1ccc(O)cc1)NC(=O)[C@H](CO)NC(=O)[C@H](CC(N)=O)NC(=O)[C@@H](NC(=O)[C@H](Cc1ccccc1)NC(=O)[C@@H](NC(=O)[C@H](C)NC(=O)[C@H](CC(=O)O)NC(=O)[C@@H](CC)NC(=O)CCc1ccc(O)cc1)[C@@H](C)CC)[C@@H](C)O)C(C)C)[C@@H](C)CC)C(=O)N[C@@H](CO)C(=O)N[C@@H](CCCNC(=N)N)C(=O)NCCCC(N)=O | GH release, ELISA | male Sprague-Dawley rat, anaesthetised, serum | subcutaneous, 3 µg/kg, 30 min | serum GH level | 130 ± 19.1 ng/mL |
| COc1ccc(C2CC(c3ccc(C)cc3)=Nc3ccccc3S2)cc1OC (stereo not drawn) | – | Wistar rat, streptozotocin-induced diabetes, serum | 20 mg/kg, 28 days | serum ALT | 20.1 ± 2.12 IU/L |

For quick reference, copied from above:
| SMILES | test | system | conditions | endpoint | value |
| --- | --- | --- | --- | --- | --- |
| CCCC[C@H](NC(=O)[C@@H](NC(=O)[C@H](CC(=O)O)NC(=O)[C@H](CCC(N)=O)NC(=O)[C@H](CC(C)C)NC(=O)[C@H](CC(C)C)NC(=O)[C@H](CCCN)NC(=O)[C@H](CCCNC(=N)N)NC(=O)[C@H](C)NC(=O)[C@H](CO)NC(=O)[C@H](CC(C)C)NC(=O)[C@H](CCC(N)=O)NC(=O)[C@H](CC)NC(=O)[C@H](CC(C)C)NC(=O)[C@@H](NC(=O)[C@H](CCCN)NC(=O)[C@H](CCCNC(=N)N)NC(=O)[C@H](Cc1ccc(O)cc1)NC(=O)[C@H](CO)NC(=O)[C@H](CC(N)=O)NC(=O)[C@@H](NC(=O)[C@H](Cc1c(F)c(F)c(F)c(F)c1F)NC(=O)[C@@H](NC(=O)[C@H](C)NC(=O)[C@H](CC(=O)O)NC(=O)[C@@H](C)NC(=O)CCc1ccc(O)cc1)[C@@H](C)CC)[C@@H](C)O)C(C)C)[C@@H](C)CC)C(=O)N[C@@H](CO)C(=O)N[C@@H](CCCNC(=N)N)C(=O)NCCCC(N)=O | GH release, ELISA | male rat, anaesthetised, serum | intravenous, 1 µg/kg, 15 min | serum GH level | 575 ± 20.9 ng/mL |
| COc1ccc(-c2oc3ccccc3c(=O)c2OCc2ccccc2)cc1 | – | diabetic rat | 7.5 mg/kg, 28 days, p-nitrophenyl β-glucoside induced | serum HDL cholesterol | 52.7 ± 2.08 mg/dL |
